Assay results of several laboratories.
Compare with care: the assays were run in different laboratories. ± gives the spread as reported.

SMILES	host	matrix	route	dose	time	together with	tissue uptake
N=C(N)NCCC[C@@H]1NC(=O)[C@H](CCCCNC(=O)CNC(=O)CNC(=O)CNC(=O)CC[C@H](NC(=O)CNC(=O)CNC(=O)CNC(=O)[C@H](CCCCNC(=O)c2ccc(NN)nc2)NC(=O)c2ccc(NN)nc2)C(=O)NCC(=O)NCC(=O)NCC(=O)NCCCC[C@@H]2NC(=O)[C@@H](Cc3ccccc3)NC(=O)[C@H](CC(=O)O)NC(=O)CNC(=O)[C@H](CCCNC(=N)N)NC2=O)NC(=O)[C@@H](Cc2ccccc2)NC(=O)[C@H](CC(=O)O)NC(=O)CNC1=O [technetium-99m labelled]	athymic nude mouse, female, U-87 MG xenograft	tumor	intravenous	0.1 MBq	1 h	–	7.46 ± 1.68 %ID/g
CCCC[C@H](NC(=O)CCCCCCCNC(=O)c1ccc(NN)nc1)C(=O)N[C@H]1CC(=O)NCCCC[C@@H](C(N)=O)NC(=O)[C@H](Cc2c[nH]c3ccccc23)NC(=O)[C@H](CCCNC(=N)N)NC(=O)[C@@H](Cc2ccccc2)NC(=O)[C@H](Cc2c[nH]cn2)NC1=O [technetium-99m labelled]	C57 mouse, B16/F1 melanoma	kidneys	–	–	2 h	NDP-MSH 10 µg (6.07 nmol) co-injected	6.05 ± 1.13 %ID/g
N=C(N)NCCC[C@H](NC(=O)[C@H](CCCCN)NC(=O)[C@H](CCC(N)=O)NC(=O)CCOCCOCCOCCNC(=O)CN1CCN(CC(=O)O)CCN(CC(=O)O)CCN(CC(=O)O)CC1)C(=O)N[C@@H](CCCCN)C(=O)N[C@@H](CCCNC(=N)N)C(=O)N[C@@H](CCCCN)C(=O)N[C@@H](CCCCN)C(=O)N[C@@H](CO)C(=O)N[C@@H](CCCNC(=N)N)C(=O)N[C@@H](Cc1ccc(O)cc1)C(=O)N[C@@H](CCCCN)C(=O)N[C@@H](CO)C(=O)O [copper-64 labelled]	C57BL/6 Jms mouse, male, B16-F10 melanoma	urinary bladder	intravenous	–	60 min	–	14.6 ± 5.81 %ID/g
CCCC[C@H](NC(=O)CNC(=O)CNC(=O)CNC(=O)c1ccc(NN)nc1)C(=O)N[C@H]1CC(=O)NCCCC[C@@H](C(N)=O)NC(=O)[C@H](Cc2c[nH]c3ccccc23)NC(=O)[C@H](CCCNC(=N)N)NC(=O)[C@@H](Cc2ccccc2)NC(=O)[C@H](Cc2c[nH]cn2)NC1=O [technetium-99m labelled]	C57 mouse, B16/F1 melanoma	intestines	intravenous	0.037 MBq	2 h	–	0.52 ± 0.09 %ID
CCCC[C@H](NC(=O)CNC(=O)CNC(=O)c1ccc(NN)nc1)C(=O)N[C@H]1CC(=O)NCCCC[C@@H](C(N)=O)NC(=O)[C@H](Cc2c[nH]c3ccccc23)NC(=O)[C@H](CCCNC(=N)N)NC(=O)[C@@H](Cc2ccccc2)NC(=O)[C@H](Cc2c[nH]cn2)NC1=O [technetium-99m labelled]	C57 mouse, B16/F1 melanoma-bearing	muscle	intravenous	–	24 h	–	0.03 ± 0.01 %ID/g
CCCC[C@H](NC(=O)[C@H](Cc1cccs1)NC(=O)[C@H](Cc1c[nH]cn1)NC(=O)CCNC(=O)[C@@H](NC(=O)[C@H](C)NC(=O)[C@H](Cc1c[nH]c2ccccc12)NC(=O)[C@H](CCC(N)=O)NC(=O)[C@H](Cc1cccs1)NC(=O)CN1CCC(NC(=O)CN(CCN(CCN(CC(=O)O)CC(=O)O)CC(=O)O)CC(=O)O)CC1)C(C)C)C(N)=O [indium-111 labelled]	Swiss nu/nu mouse, male, PC-3 tumour xenograft	pancreas	intravenous	10 pmol	4 h	–	11.4 ± 2.5 %ID/g
N=C(N)NCCC[C@@H]1NC(=O)[C@H](CCCCNC(=O)CNC(=O)CNC(=O)CNC(=O)CC[C@H](NC(=O)CNC(=O)CNC(=O)CNC(=O)c2ccc(NN=Cc3ccccc3S(=O)(=O)O)nc2)C(=O)NCC(=O)NCC(=O)NCC(=O)NCCCC[C@@H]2NC(=O)[C@@H](Cc3ccccc3)NC(=O)[C@H](CC(=O)O)NC(=O)CNC(=O)[C@H](CCCNC(=N)N)NC2=O)NC(=O)[C@@H](Cc2ccccc2)NC(=O)[C@H](CC(=O)O)NC(=O)CNC1=O [technetium-99m labelled]	athymic nu/nu mouse, female, MDA-MB-435 xenograft	tumour	intravenous	2 µCi	30 min	–	8.34 ± 0.39 %ID/g
CSCC[C@H](NC(=O)[C@H](CC(C)C)NC(=O)[C@H](Cc1c[nH]cn1)NC(=O)CNC(=O)[C@@H](NC(=O)[C@H](C)NC(=O)[C@H](Cc1c[nH]c2ccccc12)NC(=O)[C@H](CCC(N)=O)NC(=O)CCCCCNC(=O)CNC(=O)CNC(=O)CNC(=O)CSC(C)=O)C(C)C)C(N)=O [technetium-99m labelled]	Swiss mouse	bone	intravenous	18.5 MBq	5 min	–	0.51 ± 0.09 %ID/g

Excerpt of the above:
SMILES	host	matrix	route	dose	time	together with	tissue uptake
CCCC[C@H](NC(=O)CNC(=O)CNC(=O)c1ccc(NN)nc1)C(=O)N[C@H]1CC(=O)NCCCC[C@@H](C(N)=O)NC(=O)[C@H](Cc2c[nH]c3ccccc23)NC(=O)[C@H](CCCNC(=N)N)NC(=O)[C@@H](Cc2ccccc2)NC(=O)[C@H](Cc2c[nH]cn2)NC1=O [technetium-99m labelled]	C57 mouse, B16/F1 melanoma-bearing	muscle	intravenous	–	24 h	–	0.03 ± 0.01 %ID/g
